Results pooled from the literature.
Numbers after ± are the reported error.
POLB: DNA polymerase beta (POLB, Homo sapiens, UniProt P06746)
SCTR: Secretin receptor (SCTR, Homo sapiens, UniProt P47872)
MAPT: Microtubule-associated protein tau (MAPT, Homo sapiens, UniProt P10636)
T1: ssRNA FMR1 5' UTR CGG repeat (Homo sapiens); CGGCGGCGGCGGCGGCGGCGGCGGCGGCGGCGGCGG

SMILES | target | assay | test system | setting | scale | endpoint | result
Nc1nc2c(ncn2[C@H]2C[C@H](O)[C@@H](COP(=O)(O)OP(=O)(O)C(Cl)(Cl)P(=O)(O)O)O2)c(=O)[nH]1 | POLB | nucleotide incorporation, substrate, single turnover kinetics | – | dG misincorporation opposite A | – | kpol/Kd | 4.3e-07 ± 1.6e-07 µM⁻¹ s⁻¹
COc1ccc(-c2cc(C(F)(F)F)nc(NCc3ccc(F)cc3)n2)cc1OC | SCTR | cAMP, agonist | – | – | – | Emax | 15%
CC[C@H](C)[C@H](NC(=O)[C@@H](NC(=O)[C@H](CS)NC(=O)[C@H](CCSC)NC(C)=O)[C@@H](C)O)C(=O)N[C@@H](CC(=O)O)C(=O)N[C@@H](Cc1ccc(F)cc1)C(=O)N[C@@H](CC(=O)O)C(=O)N[C@@H](CCC(=O)O)C(=O)N[C@@H](Cc1ccc(O)cc1)C(=O)N[C@@H](CCCNC(=N)N)C(=O)N[C@@H](Cc1ccc(F)cc1)C(=O)N[C@@H](CCCNC(=N)N)C(=O)N[C@@H](CCCCN)C(=O)N[C@H](C(N)=O)[C@@H](C)O | human BRCA1 BRCT E1698A | fluorescence polarization | – | concentration not given, FAM-labelled compound | baseline: wild-type BRCA1 BRCT, higher = weaker binding | binding affinity fold reduction | 11 fold
CC(C)CCC[C@@H](C)[C@H]1CC[C@H]2[C@@H]3CC=C4C[C@@H](OS(=O)(=O)O)CC[C@]4(C)[C@H]3CC[C@]12C | Prothrombin (F2, Homo sapiens, UniProt P00734) | enzyme activity, inhibitor | – | added: hirudin peptide 0 nM | – | ΔY | 83.9 ± 9.2%
CCCN(CC(=O)N(CC(N)=O)Cc1cn(CCCNC(=O)CCCOc2cccc(-c3nc4ccc(-c5nc6ccc(N7CCN(C)CC7)cc6[nH]5)cc4[nH]3)c2)nn1)C(=O)CNCc1cn(CCCNC(=O)CCCOc2cccc(-c3nc4ccc(-c5nc6ccc(N7CCN(C)CC7)cc6[nH]5)cc4[nH]3)c2)nn1 | T1, ssRNA FMR1 5' UTR CGG repeat (Homo sapiens) | protein displacement, competitor, TR-FRET | – | – | – | IC50 | 18 µM
Nc1nc2c(ncn2C2CC(O)C(COP(=O)(O)OP(=O)(O)C(Br)P(=O)(O)O)O2)c(=O)[nH]1 (mixture of isomers) | POLB | nucleotide incorporation, substrate, single turnover kinetics | – | dG misincorporation opposite A | – | kpol/Kd | 1.3e-05 ± 5.1e-06 µM⁻¹ s⁻¹
CCOC(=O)CNc1nc(-c2ccccc2)cc(C(F)(F)F)n1 | SCTR | increase of tracer binding, TR-FRET | HEK293 membranes | added: Fluo-Sec 6 nM | – | Emax | 167 ± 13%
CC(=O)NCCc1ccc(O)c(O)c1 | Carbamate kinase (Giardia intestinalis, UniProt A8BB85) | enzyme activity, inhibitor, luminescence, ATP detection | Giardia lamblia | – | – | maximal inhibition | 77.3%
CC[C@H](C)[C@H](NC(=O)[C@@H](NC(=O)[C@H](CCCCN)NC(=O)[C@@H](NC(=O)CNC(=O)[C@@H](N)CCCNC(=N)N)[C@@H](C)O)C(C)C)C(=O)N[C@@H](CC(C)C)C(=O)N[C@@H](Cc1c[nH]cn1)C(=O)N[C@@H](CC(C)C)C(N)=O | MAPT | inhibitor, ThT fluorescence | – | 5-fold over protein, added: heparin | – | aggregation inhibition | inhibited
CC(=O)OC[C@H]1O[C@@H](Oc2cc(OC(C)=O)cc3oc(C)cc(=O)c23)[C@H](OC(C)=O)[C@@H](OC(C)=O)[C@@H]1OC(C)=O | Ppara (Mus musculus, UniProt P23204) | reporter gene, agonist, luciferase | HepG2 | 50 µg/mL | – | induction | 2.25
CCCCCCCC/C=C\CCCCCCCC(=O)OC[C@H]1OCC=C[C@@H]1OP(=O)(O)S (stereo partly shown) | LPAR2 (Homo sapiens, UniProt Q9HBW0) | agonist, TGFα shedding | – | – | – | Emax | 35%
CC[C@H](C)[C@H](NC(=O)[C@H](CC(C)C)NC(=O)[C@H](C)NC(=O)c1ccc(CN2CCNCC2)cc1)C(=O)N[C@@H](Cc1ccccc1)C(N)=O | Cyclin-A2, with CDK2 (CCNA2, Homo sapiens, UniProt P20248) | binding to cyclin groove, fluorescence polarization competition | – | – | – | IC50 | inactive
COc1cccc(-c2cc(C(F)(F)F)nc(NCc3ccccc3)n2)c1 | SCTR | cAMP accumulation, positive allosteric modulator | CHO-K1 overexpressing SCTR | added: EC10-EC20 secretin peptide mix | baseline: EC95 peptide mix | Emax | 62 ± 11%
Cc1cn(C2CC(O)C(COP(=O)(O)OP(=O)(O)C(F)P(=O)(O)O)O2)c(=O)[nH]c1=O (mixture of isomers) | DNA polymerase beta (POLB, Homo sapiens, UniProt P06746, I260M) | substrate, single turnover kinetics | – | – | – | kpol/Kd | 0.06 ± 0.04 µM⁻¹ s⁻¹
O[C@@H]1[C@@H](O)[C@H](O[C@@H]2OC[C@@H](O)[C@H](O)[C@H]2O)C[C@H]2O[C@@H]12 | Exo-1,4-beta-xylosidase xlnD (xlnD, Emericella nidulans, UniProt Q5BAS1) | covalent inhibitor | Aspergillus nidulans | pH 4.5 | – | kinact/Ki | 700 M⁻¹ s⁻¹
CN1CCN(CC(=O)N2N=C3/C(=C/c4ccccc4)CCCC3C2c2ccccc2)CC1 (mixture of isomers) | ALOX15 (Homo sapiens, UniProt P16050) | enzyme activity, activator | – | 10 µM, added: docosahexaenoic acid 25 µM | baseline: no activator | initial rate increase | 19%

SMILES | target | assay | test system | setting | scale | endpoint | result
O=C(Nc1cccnc1)c1ccc(-c2ccc(Cl)cc2)o1 | Nuclear receptor subfamily 4 group A member 2, ligand binding domain (Homo sapiens, UniProt P43354) | reporter gene, agonist, Gal4-Nurr1 hybrid reporter | HEK-293T | 3 µM, crude library product | baseline: vehicle (0.1% DMSO) | activation | ≤ 1.5 fold
COC(=O)C1=Cc2ccccc2S1(=O)=O | E3 ubiquitin-protein ligase Praja-1 (Pja1, Mus musculus, UniProt O55176) | in vitro ubiquitination | – | 0, 5, 10 µM | – | E3 ligase activity | no effect
CCC(c1nnnn1Cc1cccs1)N1CCN(c2nc3cc(N)cc(F)c3s2)CC1 (stereo not shown) | Deoxyribonuclease-1 (DNASE1, Bos taurus, UniProt P00639) | enzyme activity, inhibitor | – | – | – | inhibition onset concentration | > 23 µM
CCCCCCCCc1ccc(Oc2ccccc2)c(O)c1 | Enoyl-[acyl-carrier-protein] reductase [NADPH] FabI (Staphylococcus aureus, UniProt Q6GI75) | enzyme activity, inhibitor, progress curve kinetics, item: NADPH | – | – | – | Ki | 0.82 nM
COc1cccc(OC)c1OCCCn1cc(CCCNc2nc3c(c(=O)[nH]2)[n+](C)cn3C2OC(COP(=O)(O)OP(=O)([O-])OP(=O)(O)OCC3OC(n4cnc5c(=O)[nH]c(N)nc54)C(O)C3O)C(O)C2O)nn1 (stereo not shown) | Eif4e (Mus musculus, UniProt P63073) | differential scanning fluorimetry | – | 100 µM | – | melting temperature | 51 °C
CC[C@H](C)[C@H](NC(=O)[C@H](CO)NC(=O)CNC(=O)[C@H](CCCNC(=N)N)NC(=O)CNC(=O)[C@H](C)NC(=O)CNC(=O)CCCCCNC(=O)CCCC[C@@H]1SC[C@@H]2NC(=O)N[C@@H]21)C(=O)N[C@@H](CC(=O)O)C(=O)N[C@H](C(=O)N[C@@H](Cc1c[nH]c2ccccc12)C(=O)N[C@H](C(=O)O)C(C)C)[C@@H](C)O | Erbin, PDZ domain (ERBIN, Homo sapiens, UniProt Q96RT1) | PDZ-mNG binding, DNA-PAINT | – | added: 26 nM PDZ-mNG | – | mean dark time | 102 ± 60 s
COc1ccc(-c2cc(C(F)(F)F)nc(NCc3ccccc3)n2)cc1 | SCTR | cAMP, agonist | – | – | – | Emax | 19%
S=C(Nc1ccc(Cl)cc1)Nc1cccc2[nH]ccc12 | MAPT | PICUP cross-linking | – | up to 200 µM, added: MAPT 6 µM | – | oligomer formation | no effect
COc1ccc(-c2cc(C(F)(F)F)nc(S(=O)(=O)CCC(=O)Nc3ccc(C)cc3)n2)cc1 | WRN (Homo sapiens, UniProt Q14191) | inhibitor | – | concentration not given | – | exonuclease activity | inactive
CCC1(O)CCCN(C(=O)c2cccc(C#N)c2)C1 (stereo not shown) | DNA dC->dU-editing enzyme APOBEC-3A (Homo sapiens, UniProt P31941) | binding, 1H CPMG NMR | – | – | – | signal attenuation | 14.9 ± 12.5%
Nc1nc2c(ncn2[C@H]2C[C@H](O)[C@@H](COP(=O)(O)OP(=O)(O)C(Br)(Br)P(=O)(O)O)O2)c(=O)[nH]1 | POLB | nucleotide incorporation, substrate, single turnover kinetics | – | dG misincorporation opposite A | – | kpol/Kd | 7.5e-06 ± 2.4e-06 µM⁻¹ s⁻¹
N=C(N)NCCC[C@@H]1NC(=O)[C@H](Cc2c[nH]c3ccccc23)NC(=O)[C@H](CCCNC(=N)N)NC(=O)[C@H](Cc2c[nH]c3ccccc23)NC(=O)[C@H](CCCNC(=N)N)NC(=O)[C@H](Cc2c[nH]c3ccccc23)NC(=O)[C@H](CCCNC(=N)N)NC(=O)[C@H](Cc2c[nH]c3ccccc23)NC(=O)[C@H](CCCNC(=N)N)NC(=O)[C@H](Cc2c[nH]c3ccccc23)NC(=O)[C@H](CCCNC(=N)N)NC(=O)[C@H](Cc2c[nH]c3ccccc23)NC(=O)[C@H](CCCNC(=N)N)NC(=O)[C@H](Cc2c[nH]c3ccccc23)NC(=O)[C@H](CCCNC(=N)N)NC(=O)[C@H](Cc2c[nH]c3ccccc23)NC(=O)[C@H](CCCNC(=N)N)NC(=O)[C@H](Cc2c[nH]c3ccccc23)NC1=O | Cyclin-dependent kinase 2, with cyclin A1 (CDK2, Homo sapiens, UniProt P24941) | kinase activity, Reaction Biology radiometric | – | concentration not given, added: ATP 200 µM | baseline: DMSO | remaining activity | 5.6%
COC(=O)C1=CNC=C(C(=O)OC)C1c1ccc(F)c(C(F)(F)F)c1 | KCNN4 (Homo sapiens, UniProt O15554, T212F/V272F) | ion current, whole-cell patch clamp | – | fenestration mutant | baseline: mutant over wild type | potency fold shift | ~4 fold
COc1cc2c(cc1OC)C(c1ccc(F)cc1F)N(CCCOc1ccc(CCC(=O)O)cc1)CC2 (stereo not shown) | PPARG (Homo sapiens, UniProt P37231, S273A) | agonist, reporter gene | CHO | 10 µM, Ser273 mutant | baseline: wild type | transactivation | increased
CN(C(=O)CCc1nc(CN2CCN(C(=O)c3ccc(Br)o3)CC2)no1)C1CCCCC1 | KCNQ2 (Homo sapiens, UniProt O43526) | potassium current, activator, whole-cell patch clamp | CHO, stable | 20 µM | baseline: current before compound | current fold increase | 1.22 ± 0.11

For quick reference, copied from above:
SMILES | target | assay | test system | setting | scale | endpoint | result
COc1cccc(-c2cc(C(F)(F)F)nc(NCc3ccccc3)n2)c1 | SCTR | cAMP accumulation, positive allosteric modulator | CHO-K1 overexpressing SCTR | added: EC10-EC20 secretin peptide mix | baseline: EC95 peptide mix | Emax | 62 ± 11%
CC(=O)NCCc1ccc(O)c(O)c1 | Carbamate kinase (Giardia intestinalis, UniProt A8BB85) | enzyme activity, inhibitor, luminescence, ATP detection | Giardia lamblia | – | – | maximal inhibition | 77.3%
CCC(c1nnnn1Cc1cccs1)N1CCN(c2nc3cc(N)cc(F)c3s2)CC1 (stereo not shown) | Deoxyribonuclease-1 (DNASE1, Bos taurus, UniProt P00639) | enzyme activity, inhibitor | – | – | – | inhibition onset concentration | > 23 µM
CN(C(=O)CCc1nc(CN2CCN(C(=O)c3ccc(Br)o3)CC2)no1)C1CCCCC1 | KCNQ2 (Homo sapiens, UniProt O43526) | potassium current, activator, whole-cell patch clamp | CHO, stable | 20 µM | baseline: current before compound | current fold increase | 1.22 ± 0.11
Nc1nc2c(ncn2[C@H]2C[C@H](O)[C@@H](COP(=O)(O)OP(=O)(O)C(Cl)(Cl)P(=O)(O)O)O2)c(=O)[nH]1 | POLB | nucleotide incorporation, substrate, single turnover kinetics | – | dG misincorporation opposite A | – | kpol/Kd | 4.3e-07 ± 1.6e-07 µM⁻¹ s⁻¹
